Experimental data collected from several papers.
Parts stem from different laboratories: compare values within a part only. Several values in a cell are separate wells, animals, samples, runs or records.

Study 1
Target: CRBN/Zinc finger protein Helios (Homo sapiens, UniProt Q96SW2+Q9UKS7)
Sequence of UniProt Q9UKS7 (whole entry, looked up): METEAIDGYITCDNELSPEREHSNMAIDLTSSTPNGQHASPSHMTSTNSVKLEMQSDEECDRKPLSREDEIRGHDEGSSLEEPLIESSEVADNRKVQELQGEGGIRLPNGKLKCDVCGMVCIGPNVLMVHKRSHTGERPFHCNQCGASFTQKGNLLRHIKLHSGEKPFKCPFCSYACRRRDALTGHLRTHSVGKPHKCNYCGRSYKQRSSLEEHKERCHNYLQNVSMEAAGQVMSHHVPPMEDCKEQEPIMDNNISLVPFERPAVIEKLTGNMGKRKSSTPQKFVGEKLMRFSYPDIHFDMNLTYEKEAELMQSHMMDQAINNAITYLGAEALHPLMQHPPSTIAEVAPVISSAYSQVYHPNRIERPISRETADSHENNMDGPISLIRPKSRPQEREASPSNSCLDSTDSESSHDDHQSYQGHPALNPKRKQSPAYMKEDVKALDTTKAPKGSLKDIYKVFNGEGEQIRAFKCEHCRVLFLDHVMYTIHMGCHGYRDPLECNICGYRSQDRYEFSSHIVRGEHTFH
Sequence of UniProt Q96SW2 (whole entry, looked up): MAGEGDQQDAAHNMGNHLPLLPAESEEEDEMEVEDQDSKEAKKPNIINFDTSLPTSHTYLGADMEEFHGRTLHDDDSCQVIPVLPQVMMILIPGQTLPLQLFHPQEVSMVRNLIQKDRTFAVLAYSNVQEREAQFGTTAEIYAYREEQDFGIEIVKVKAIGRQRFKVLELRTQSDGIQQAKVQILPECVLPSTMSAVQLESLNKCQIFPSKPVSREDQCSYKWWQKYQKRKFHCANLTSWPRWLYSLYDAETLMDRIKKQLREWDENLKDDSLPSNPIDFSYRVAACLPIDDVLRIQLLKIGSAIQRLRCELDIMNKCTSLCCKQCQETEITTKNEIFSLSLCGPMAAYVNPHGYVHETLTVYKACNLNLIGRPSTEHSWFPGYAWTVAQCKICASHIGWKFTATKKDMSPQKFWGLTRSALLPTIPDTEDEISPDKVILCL
Mode: degrader
Method: HiBiT
Cells: HEK293
Concentration: 1111.11 nM
Structure (SMILES)	protein remaining
O=C1CCC(N2Cc3c(ccc4c3OCC43CCCN(Cc4ccccc4)CC3)C2=O)C(=O)N1 (stereo not drawn)	82.6%
O=C1CCC(N2Cc3c(ccc4c3OCC43CCN(Cc4ccsc4)CC3)C2=O)C(=O)N1 (stereo not drawn)	20.3%
O=C1CCC(N2Cc3c(ccc4c3OCC43CCN(Cc4ccccc4)C3)C2=O)C(=O)N1 (stereo not drawn)	71.9%
O=C1CCC(N2Cc3c(ccc4c3OCC43CCN(Cc4ccccn4)CC3)C2=O)C(=O)N1 (stereo not drawn)	39%
O=C1CCC(N2Cc3c(ccc4c3OCC43CCN(Cc4ccccc4)CC3(F)F)C2=O)C(=O)N1 (stereo not drawn)	37.6%
O=C1CCC(N2Cc3c(ccc4c3OCC43CCN(CC4CCCCC4)CC3)C2=O)C(=O)N1 (stereo not drawn)	43.6%

Study 2
Cell line: HaCaT
Concentration: 100 µM
Time: 18 h
SMILES	viability
CC(C)N(CCC(C(N)=O)(c1ccccc1)c1ccccn1)C(C)C (stereo not drawn)	113%
Cc1ccc(-n2nccn2)c(C(=O)N2CCN(c3nc4cc(Cl)ccc4o3)CC[C@H]2C)c1	49.9%
Cc1cccc([C@H](C)c2cnc[nH]2)c1C	114%
C[C@@H]1O[C@@H](O[C@H]2C[C@@H](O)[C@]3(CO)[C@H]4[C@H](O)C[C@]5(C)[C@@H](C6=CC(=O)OC6)CC[C@]5(O)[C@@H]4CC[C@]3(O)C2)[C@H](O)[C@H](O)[C@H]1O	30.5%
Oc1cccc2cccnc12	70.1%
O=P1(N(CCCl)CCCl)NCCCO1 (stereo not drawn)	107%
Cc1c(N)nc([C@H](CC(N)=O)NC[C@H](N)C(N)=O)nc1C(=O)N[C@H](C(=O)N[C@H](C)[C@@H](O)[C@H](C)C(=O)N[C@H](C(=O)NCCc1nc(-c2nc(C(=O)NCCC[S+](C)C)cs2)cs1)[C@@H](C)O)[C@@H](O[C@@H]1O[C@@H](CO)[C@@H](O)[C@H](O)[C@@H]1O[C@H]1O[C@H](CO)[C@@H](O)[C@H](OC(N)=O)[C@@H]1O)c1c[nH]cn1	93.1%

Single results of other studies
SMILES	test system	conditions	endpoint	result
COc1cc2c(cc1O)CC1c3c(cc(O)c(OC)c3-2)CCN1C (stereo not drawn)	mouse, microsomes or S9	2 µM, 0.5 h	remaining compound	49.8%
[N-]=[N+]=CC(=O)CC[C@H](N)C(=O)O	C57BL/6 CES1-/- mouse	intravenous, 1 mg/kg	haematocrit	24.2% and 21.8% and 13.5%
